Assay results pooled from the literature.
Each line is one published result; not all experiments were run side by side. ≈ marks a conversion by molar mass, not a printed value.

`c1ccc(C(NCCNC(c2ccccc2)c2ccccc2)c2ccccc2)cc1` gave an inhibition of 66% (L-type calcium channel, rat, Phenylalkylamine site; binding; 10 µM, Eurofins selectivity panel).
With `COc1c(CCC[P+](c2ccccc2)(c2ccccc2)c2ccccc2)cc2c(c1OC)OCO2.[I-]` the TGI was -4.29 log M (EKVX; SRB).
`CC[C@H](C)[C@@H]1NC(=O)[C@@H]2CCCN2C(=O)[C@H](CC(C)C)NC(=O)[C@H](CC(C)C)NC(=O)CNC(=O)[C@@H](NC(=O)[C@@H](NC(=O)[C@H](CC(=O)O)NC(=O)CNC(=O)[C@@H](NC(=O)[C@H](C)NC(=O)CNC(=O)[C@H](CCCCN)NC(=O)[C@H](CC(C)C)NC(=O)[C@H](CC(C)C)NC(=O)[C@H](CCCCN)NC(=O)CNC(=O)[C@@H](NC(=O)[C@@H](N)CC(C)C)C(C)C)C(C)C)C(C)C)CSSC[C@@H](C(=O)O)NC1=O`: “log2 fold change” -2.55 (RNA-seq, item: Itgal mRNA; mouse traumatic brain injury, frontal cortex and hippocampus; dose not given; baseline: TBI plus compound vs TBI).
`C[C@H](C(=O)N[C@H]1COc2ccccc2[C@@H]1S(C)(=O)=O)c1ccc(F)cc1` has an inhibition of 0% (adrenergic alpha2 receptor, rat; binding; 10 µM, Eurofins selectivity panel).
The MIC50 of `CC[C@H](C)[C@H](NC(=O)[C@H](C)NC(=O)[C@H](CCCCN)NC(=O)[C@H](CC(C)C)NC(=O)[C@H](C)NC(=O)[C@@H](NC(=O)[C@H](Cc1c[nH]cn1)NC(=O)[C@H](CC(C)C)NC(=O)[C@@H](NC(=O)[C@@H](NC(=O)[C@H](CCCCN)NC(=O)[C@H](C)NC(=O)[C@H](C)NC(=O)[C@H](CO)NC(=O)[C@H](CCCCN)NC(=O)[C@H](Cc1ccccc1)NC(=O)[C@@H](NC(=O)[C@H](CCCCN)NC(=O)[C@H](CC(C)C)NC(=O)[C@H](Cc1ccccc1)NC(=O)[C@H](CO)NC(=O)[C@H](CCCCN)NC(=O)[C@H](Cc1c[nH]c2ccccc12)NC(=O)[C@H](CCCCN)NC(C)=O)[C@@H](C)O)[C@@H](C)O)C(C)C)[C@@H](C)O)C(=O)N[C@@H](CO)C(=O)N[C@@H](CO)C(N)=O` is reported as 8 µg/mL (≈ 2.73 µM) (Enterobacter cloacae; 40 strains).
With `O=C(NNc1ccc(Cl)cc1)c1nnc(C23CC4CC(CC(C4)C2)C3)o1` the inhibition was 100% (Fusarium graminearum; fungal growth, inhibitor; 50 µg/mL).
`CN1CCN(S(=O)(=O)c2cc([N+](=O)[O-])ccc2N(CCOS(C)(=O)=O)CCOS(C)(=O)=O)CC1`: “EFS ratio (T/C)” over 29.1 (NSG mice, sample BE PDX; intraperitoneal, 25 mg/kg weekly x3; baseline: treated over vehicle).
The serum HDL-C of `CCCCC1(CCCC)CN(c2ccccc2)c2cc(SC)c(OCC(=O)N[C@@H](C(=O)NCC(=O)O)c3ccccc3)cc2S(=O)(=O)C1` is reported as 43.2 mg/dL (item: HDL cholesterol; human, serum; 15 mg once daily, day 14).
`CN1CCN(C2(CNC3CCN(c4cccc(-c5cc6cc(F)ccc6[nH]5)c4)CC3)CCC2)CC1` has a GI50 of 1.61 µM (EKVX).
With `O=C(NNc1cc(F)ccc1F)c1nnc(C23CC4CC(CC(C4)C2)C3)o1` the inhibition was 100% (Fusarium graminearum; fungal growth, inhibitor; 50 µg/mL).
`CN1C(=O)C(C2C3=C(CC(C)(C)CC3=O)Oc3c(O)cccc32)C(=O)N(C)C1=O` (stereo not drawn) — result for “mean lipid content”: 0.584 OD492 (3T3-L1 preadipocytes; adipogenesis, Oil Red O staining; IC20, 14 days).
`COc1cc(CCC[P+](c2ccccc2)(c2ccccc2)c2ccccc2)c(OC)c2c1OCO2.[I-]` has a TGI of -5.19 log M (UACC-257; SRB).
The thermal shift of `O=C1NC(=O)C(=O)C(=O)N1` is reported as 9.78 °C (SAR11_1346; differential scanning fluorimetry; Candidatus Pelagibacter sp.; in-house screen).
Under “pathway fold enrichment”, `Nc1ncnc2c1ncn2[C@@H]1O[C@@H]2COP(=O)(O)O[C@H]3[C@@H](O)[C@H](n4cnc5c(=O)[nH]cnc54)O[C@@H]3COP(=O)(O)O[C@H]2[C@H]1O` is recorded as 8.94 (HFF-1; RNA sequencing, item: Interferon Signaling; upregulated pathway; baseline: Zika virus alone).
For `CC(=O)c1c(C)c2cnc(Nc3ccc(C4CCN(CCS(C)(=O)=O)CC4)cn3)nc2n(C2CCCC2)c1=O`, “best response partial response” read 6.7% (RECIST v1.1; HR+/HER2- advanced breast cancer patients; 100 mg twice daily, phase Ib monotherapy arm).

Repeated from above:
`COc1cc(CCC[P+](c2ccccc2)(c2ccccc2)c2ccccc2)c(OC)c2c1OCO2.[I-]` has a TGI of -5.19 log M (UACC-257; SRB).
With `COc1c(CCC[P+](c2ccccc2)(c2ccccc2)c2ccccc2)cc2c(c1OC)OCO2.[I-]` the TGI was -4.29 log M (EKVX; SRB).
